# Published values pooled from the literature.
# Protocols differ between the studies behind these lines.
# Route: oral
Compound,test system,setting,Cmax
CS(=O)(=O)n1cc2c(n1)CN([C@H]1CO[C@H](c3cc(F)ccc3F)[C@@H](N)C1)C2,"male human, plasma","10 mg, single dose, fed",0.223 µM
O=C(CCCCCCC(=O)Nc1ccccc1)NO,"human, serum","800 mg, patients",3.59 µM
O=C(c1nc2n(n1)[C@H](c1ccccc1)C[C@@H]2F)C1CC1,"human, plasma","225 mg, single dose, fasted, healthy volunteers",1830 ng/mL
Nc1ccc(-c2nc([C@H]3CCc4cc(-c5cc(Cl)ccc5-n5cnnn5)cc(=O)n43)c(F)[nH]2)c(F)n1,"human, plasma","20 mg, single dose, fasted",159 ng/mL
Nc1ncc(-c2cnn(CCO)c2)c2scc(-c3ccc(NC(=O)Nc4cccc(F)c4)cc3)c12,"human, plasma","640 mg, patients",1550 ng/mL
CNCc1ccc(-c2[nH]c3cc(F)cc4c3c2CCNC4=O)cc1,"human, plasma","160 mg, multiple doses, once daily, steady state, patients",288 ng/mL
CNc1nc(Nc2ccc(-n3cnc(C)n3)c(OC)c2)nc2c1CC[C@H]2c1ccc(F)cc1,"human, plasma","1200 mg, single dose, healthy volunteers",1600 ng/mL
CNC(=O)c1ccc(-c2cnc3ncc(Cc4ccc5ncccc5c4)n3n2)cc1F,"human, plasma","350 mg twice daily, multiple doses, steady state, patients",4410 ng/mL
C[C@@H]1CCC[C@H](n2cnc(-c3cc(Cl)ccc3-n3cc(Cl)nn3)cc2=O)c2cc(ccn2)-c2c(cnn2C(F)F)NC1=O,"human, plasma","20 mg, single dose, fasted, healthy volunteers",126 ng/mL
CCCOc1ccc([C@H]2CNC(=O)N2c2ccc3[nH]cnc3c2)cc1,"human, plasma","400 mg, single dose, fasted",2150 ng/mL
CCCCCN1C[C@H](O)[C@@H](O)[C@H](O)[C@@H]1CO,"male human, plasma","1000 mg, single dose, fasted, healthy volunteers",8590 ng/mL
C#C[C@]1(CO)O[C@@H](n2cnc3c(N)nc(F)nc32)C[C@@H]1O,"human, plasma","200 mg, single dose, fasted",6.18 µM
COc1cccc(-c2ccc(NC(=O)C3=C(C(=O)O)CCC3)c(F)c2)c1,"male human, plasma","40 mg, single dose, fasted, healthy volunteers",7860 ng/mL

# A few entries again:
Compound,test system,setting,Cmax
O=C(CCCCCCC(=O)Nc1ccccc1)NO,"human, serum","800 mg, patients",3.59 µM
